Experimental data pooled from the literature.
Every numbered part comes from another study and shows a few of its results, in no order.
Sequence of UniProt P51812 (whole entry, looked up): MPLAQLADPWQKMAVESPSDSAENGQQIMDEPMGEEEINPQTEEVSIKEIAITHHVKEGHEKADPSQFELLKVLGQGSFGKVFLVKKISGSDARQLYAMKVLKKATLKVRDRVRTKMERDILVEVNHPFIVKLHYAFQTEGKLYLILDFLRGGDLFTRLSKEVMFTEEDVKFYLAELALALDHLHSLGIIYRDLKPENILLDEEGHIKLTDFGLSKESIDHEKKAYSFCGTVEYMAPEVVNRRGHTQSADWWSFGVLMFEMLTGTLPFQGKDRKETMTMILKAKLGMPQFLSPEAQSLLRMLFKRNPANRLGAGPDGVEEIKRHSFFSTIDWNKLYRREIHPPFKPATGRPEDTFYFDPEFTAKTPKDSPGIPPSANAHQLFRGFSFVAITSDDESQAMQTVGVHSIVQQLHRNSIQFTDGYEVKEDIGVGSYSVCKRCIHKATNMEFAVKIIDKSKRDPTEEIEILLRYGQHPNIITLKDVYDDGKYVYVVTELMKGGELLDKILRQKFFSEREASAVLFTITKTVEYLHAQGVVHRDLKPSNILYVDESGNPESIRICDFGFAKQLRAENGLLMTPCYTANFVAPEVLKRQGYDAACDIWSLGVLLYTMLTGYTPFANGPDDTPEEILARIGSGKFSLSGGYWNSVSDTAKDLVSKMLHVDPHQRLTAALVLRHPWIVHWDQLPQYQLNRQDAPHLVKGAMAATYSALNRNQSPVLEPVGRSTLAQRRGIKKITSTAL
Sequence of UniProt P62344 (whole entry, looked up): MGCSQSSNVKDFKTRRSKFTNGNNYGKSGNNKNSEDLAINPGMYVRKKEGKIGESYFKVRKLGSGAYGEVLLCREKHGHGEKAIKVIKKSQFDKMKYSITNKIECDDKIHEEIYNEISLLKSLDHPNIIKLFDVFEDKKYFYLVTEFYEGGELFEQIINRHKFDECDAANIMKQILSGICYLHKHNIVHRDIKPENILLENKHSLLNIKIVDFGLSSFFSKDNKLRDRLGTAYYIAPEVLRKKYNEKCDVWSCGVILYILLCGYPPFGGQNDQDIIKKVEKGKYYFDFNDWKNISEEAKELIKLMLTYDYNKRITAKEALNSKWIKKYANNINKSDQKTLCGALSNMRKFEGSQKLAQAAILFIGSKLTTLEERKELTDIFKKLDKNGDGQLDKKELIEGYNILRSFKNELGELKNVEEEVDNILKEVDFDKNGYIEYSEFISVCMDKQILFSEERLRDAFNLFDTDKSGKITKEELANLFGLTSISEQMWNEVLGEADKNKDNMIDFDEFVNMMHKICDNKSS
Sequence of UniProt P9WI81 (whole entry, looked up): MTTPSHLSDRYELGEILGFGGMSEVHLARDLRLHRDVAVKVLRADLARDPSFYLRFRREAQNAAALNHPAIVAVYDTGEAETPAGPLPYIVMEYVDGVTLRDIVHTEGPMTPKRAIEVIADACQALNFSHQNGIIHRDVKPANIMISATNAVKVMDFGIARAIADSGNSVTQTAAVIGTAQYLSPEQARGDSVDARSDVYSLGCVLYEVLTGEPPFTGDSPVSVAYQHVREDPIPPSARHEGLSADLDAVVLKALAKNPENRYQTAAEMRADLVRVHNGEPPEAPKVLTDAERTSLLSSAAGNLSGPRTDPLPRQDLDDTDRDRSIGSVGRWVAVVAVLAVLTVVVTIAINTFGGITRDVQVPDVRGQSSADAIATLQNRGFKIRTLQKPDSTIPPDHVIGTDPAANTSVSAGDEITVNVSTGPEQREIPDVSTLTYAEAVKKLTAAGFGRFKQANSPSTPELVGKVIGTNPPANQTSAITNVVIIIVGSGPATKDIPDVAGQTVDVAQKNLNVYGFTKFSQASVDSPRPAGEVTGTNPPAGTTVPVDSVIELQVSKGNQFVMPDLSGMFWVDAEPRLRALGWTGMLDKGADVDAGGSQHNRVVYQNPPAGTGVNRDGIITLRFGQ

Series 1
Target: Diamine acetyltransferase 1 (Homo sapiens, UniProt P21673)
Action: inhibitor
Concentration: 10 µM
Reference: control
Residues (P21673 1-171): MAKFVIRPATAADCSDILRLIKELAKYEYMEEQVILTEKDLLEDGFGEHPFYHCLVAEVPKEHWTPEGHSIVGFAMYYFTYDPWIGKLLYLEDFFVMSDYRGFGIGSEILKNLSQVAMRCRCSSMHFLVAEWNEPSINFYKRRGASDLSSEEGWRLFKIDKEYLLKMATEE
The remaining activity of `C=CCc1cc(OC)c2c(c1)OCO2` is reported as 101%.
With `CCOC1c2c(ccc3c2OCO3)-c2ccc3cc4c(cc3c2N1C)OCO4` (stereo not drawn) the remaining activity was 113%.
The remaining activity of `C[C@H]1CCC/C=C/[C@@H]2C[C@H](O)C[C@H]2[C@H](O)/C=C/C(=O)O1` is reported as 99.8%.
The remaining activity of `COC(=O)c1ccccc1C(=O)OC` is reported as 93.7%.
`c1c2c(cc3c1OCO3)-c1cc3ccc4c(c3c[n+]1CC2)OCO4` has a remaining activity of 100%.

Series 2
Cell line: HEK-293T/ACE2
Technique: Hoechst nuclei count
Concentration: concentration not given
Time: 16 (unit not given)
Reference: vehicle
With `CCOC(=O)C1=C[C@@H](OC(CC)CC)[C@H](NC(C)=O)[C@@H](N)C1` the viability was 99.1%.
The viability of `C[C@H](Cn1cnc2c(N)ncnc21)OCP(=O)(O)O` is reported as 103%.
`c1ccc(CC2=NCCN2)cc1` has a viability of 106%.
`CN1CCCC(n2nc(Cc3ccc(Cl)cc3)c3ccccc3c2=O)CC1` (stereo not drawn) has a viability of 97.3%.

Other studies, line by line
The remaining binding of `COc1ccc2cc(OCC3(C(=O)O)CN(C(=O)c4ccc(F)cc4)C3)ccc2c1` is reported as 88% (pknB (Mycobacterium tuberculosis, UniProt P9WI81); cell-free assay, competition with immobilised ligand; 1 µM).
For `CN[C@@H]1C[C@H]2O[C@@](C)([C@@H]1OC)n1c3ccccc3c3c4c(c5c6ccccc6n2c5c31)C(=O)NC4`, the remaining activity was -1.27% (RPS6KA3 (Homo sapiens, UniProt P51812); enzyme activity, inhibitor; 0.5 µM; reference: control).
`C[C@@]1(Cc2ccc(C#N)cc2)C(=O)N(c2cc(Cl)cc(Cl)c2)c2ncc(C(=O)NC3(c4nc(C5CCC5)no4)CC3)n21` gave a remaining binding of 100% (CDPK1 (Plasmodium falciparum, UniProt P62344); cell-free assay, competition with immobilised ligand; 1 µM).

Some of these lines once more (series 2):
The viability of `C[C@H](Cn1cnc2c(N)ncnc21)OCP(=O)(O)O` is reported as 103%.
`c1ccc(CC2=NCCN2)cc1` has a viability of 106%.
